Assay results pooled from the literature.
Every numbered part comes from another study and shows a few of its results, in no order.

Set 1
Target: Sal-like protein 4, full length isoform B (SALL4, Homo sapiens, UniProt Q9UJQ4-2, residues 1-616)
Method: universal PBM
Molecule type: double-stranded DNA, one strand shown
Matrix: in vitro
Tested at: not given
Setting: 8-mer, flanks averaged, mean of replicates
Reading: higher = stronger binding
`AGGGGCTA` gave an E-score of -0.131.
The E-score of `ATAGCAAC` is reported as 0.145.
`AGAATGTA` has an E-score of 0.231.

Set 2
Target: Interferon regulatory factor 3, full length, phosphomimetic (IRF3, Homo sapiens, UniProt Q14653, residues 1-427, S386D/S396D/S398D/S402D/T404D/S405D)
Method: protein-binding microarray
Molecule type: double-stranded DNA, one strand shown
Matrix: in vitro
Tested at: 2540 nM top
Setting: 60-bp whole probe
Together with: salmon DNA 0.4 mg/ml
Reference: random background probes
Reading: higher = stronger binding
Residues (chain): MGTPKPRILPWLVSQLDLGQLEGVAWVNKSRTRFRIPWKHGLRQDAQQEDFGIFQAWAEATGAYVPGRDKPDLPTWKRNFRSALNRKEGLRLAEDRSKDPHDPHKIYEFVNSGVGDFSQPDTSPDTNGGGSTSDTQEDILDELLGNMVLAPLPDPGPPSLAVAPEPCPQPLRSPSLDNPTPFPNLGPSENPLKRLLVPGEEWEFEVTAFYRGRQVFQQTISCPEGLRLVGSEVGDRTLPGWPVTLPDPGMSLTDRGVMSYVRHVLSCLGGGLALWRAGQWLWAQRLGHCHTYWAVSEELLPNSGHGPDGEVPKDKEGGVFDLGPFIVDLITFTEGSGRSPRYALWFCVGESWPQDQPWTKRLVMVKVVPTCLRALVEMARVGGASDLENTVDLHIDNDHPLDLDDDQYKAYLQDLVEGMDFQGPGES
Under “fitted relative affinity”, `GCCTAGCACTTTGATATCGGGTTTCGATTAGTGCTAGTCTTGATTCGCTTGACGCTGCTG` is recorded as 2.07 z-score.
For `GCCTAGCACATAGATATCGGGTTTCGATTAGTGCTAGTCTTGATTCGCTTGACGCTGCTG`, “fitted relative affinity” read 2.36 z-score.
For `GCCTAGCACTTAGATCTCAGTCTCGATTCGTGCTAGGTCTTGATTCGCTTGACGCTGCTG`, “fitted relative affinity” read 0.751 z-score.
`GCCTAGCACTGTCCTTTCACTTTAACTTAGTGCTAGGTCTTGATTCGCTTGACGCTGCTG` — result for “fitted relative affinity”: 4.66 z-score.

Set 3
Target: Histone acetyltransferase KAT6A, winged helix 2, GST fusion (KAT6A, Homo sapiens, UniProt Q92794, residues 85-181)
Method: protein binding microarray
Molecule type: double-stranded DNA, one strand shown
Matrix: in vitro
Tested at: not given
Setting: 8-mer, flanks averaged, mean of 2 arrays, mostly near background
Reference: not given
Reading: higher = stronger binding
Construct (chain): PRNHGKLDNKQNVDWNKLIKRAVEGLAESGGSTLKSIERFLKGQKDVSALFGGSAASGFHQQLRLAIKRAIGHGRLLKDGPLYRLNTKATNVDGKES
`GCATCAAC` has an E-score of 0.118.
The E-score of `ATCAGGTG` is reported as -0.0542.
`CAGCTCGA` gave an E-score of 0.0289.
For `AGCACGTC`, the E-score was -0.0891.

Single results of other studies
`PhoQ, residues 284 288 289 292 302 303 AGHLVA` has a fold induction of 2.56 (PhoP, residues 12 14 15 18 19 STWGI (Escherichia coli, UniProt P23836); Sort-seq, item: YFP reporter; E. coli; PhoQ-PhoP variant library, together with: 10 µM Mg2+; reference: high Mg2+ state, higher = stronger signaling).

For quick reference, copied from above (set 2):
For `GCCTAGCACATAGATATCGGGTTTCGATTAGTGCTAGTCTTGATTCGCTTGACGCTGCTG`, “fitted relative affinity” read 2.36 z-score.
